Assay results gathered from unrelated publications.
Each line is one published result; not all experiments were run side by side. Values joined by “and” are separate records of one study, mostly repeats; a detail may differ. ± gives the spread as reported.
Oprm1: Mu-type opioid receptor (Oprm1, Rattus norvegicus, UniProt P33535)
UniProt P33535, sequence (whole entry, looked up): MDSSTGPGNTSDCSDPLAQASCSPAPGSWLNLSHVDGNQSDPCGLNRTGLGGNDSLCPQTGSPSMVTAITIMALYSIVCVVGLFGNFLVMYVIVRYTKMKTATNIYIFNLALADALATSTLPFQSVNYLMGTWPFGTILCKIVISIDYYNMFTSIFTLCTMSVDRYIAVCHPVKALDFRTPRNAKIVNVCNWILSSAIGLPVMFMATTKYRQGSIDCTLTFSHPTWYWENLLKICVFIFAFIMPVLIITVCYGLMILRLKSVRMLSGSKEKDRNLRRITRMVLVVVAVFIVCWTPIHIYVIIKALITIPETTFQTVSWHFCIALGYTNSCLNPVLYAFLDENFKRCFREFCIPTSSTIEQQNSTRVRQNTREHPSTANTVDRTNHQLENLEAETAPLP
KEAP1: Kelch-like ECH-associated protein 1 (KEAP1, Homo sapiens, UniProt Q14145)
UniProt Q14145, sequence (whole entry, looked up): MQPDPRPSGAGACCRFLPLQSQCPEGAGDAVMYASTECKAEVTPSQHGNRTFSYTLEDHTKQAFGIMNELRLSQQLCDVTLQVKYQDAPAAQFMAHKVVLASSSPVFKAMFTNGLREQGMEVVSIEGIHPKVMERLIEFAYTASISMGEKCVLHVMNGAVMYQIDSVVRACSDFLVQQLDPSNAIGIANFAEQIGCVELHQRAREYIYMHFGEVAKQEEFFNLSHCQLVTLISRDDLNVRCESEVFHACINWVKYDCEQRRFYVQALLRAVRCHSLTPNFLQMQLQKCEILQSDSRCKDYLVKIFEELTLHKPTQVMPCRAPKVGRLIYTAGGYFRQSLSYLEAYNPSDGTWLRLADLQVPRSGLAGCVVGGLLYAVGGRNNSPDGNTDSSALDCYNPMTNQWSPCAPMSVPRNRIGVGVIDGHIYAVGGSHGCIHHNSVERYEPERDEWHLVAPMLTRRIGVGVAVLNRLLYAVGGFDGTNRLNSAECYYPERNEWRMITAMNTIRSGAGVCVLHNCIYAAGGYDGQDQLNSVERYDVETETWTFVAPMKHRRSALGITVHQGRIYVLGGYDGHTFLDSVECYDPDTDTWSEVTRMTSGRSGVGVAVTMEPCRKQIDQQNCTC
lasR: Transcriptional activator protein LasR (lasR, Pseudomonas aeruginosa, UniProt P25084)
Uncharacterized hydrolase SAUSA300_2518: Uncharacterized hydrolase SAUSA300_2518 (Staphylococcus aureus, UniProt Q2FDS6)
sdiA: Regulatory protein SdiA (sdiA, Escherichia coli, UniProt P07026)
UniProt Q007T0, sequence (whole entry, looked up): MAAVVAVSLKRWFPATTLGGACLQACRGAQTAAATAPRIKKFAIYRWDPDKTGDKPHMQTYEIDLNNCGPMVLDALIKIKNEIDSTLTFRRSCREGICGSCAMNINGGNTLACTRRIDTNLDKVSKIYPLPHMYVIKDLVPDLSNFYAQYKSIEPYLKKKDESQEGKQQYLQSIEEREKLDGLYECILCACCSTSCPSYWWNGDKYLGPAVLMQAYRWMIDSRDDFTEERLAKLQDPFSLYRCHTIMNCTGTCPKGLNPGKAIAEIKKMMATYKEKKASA
UniProt A5GZW8, sequence (whole entry, looked up): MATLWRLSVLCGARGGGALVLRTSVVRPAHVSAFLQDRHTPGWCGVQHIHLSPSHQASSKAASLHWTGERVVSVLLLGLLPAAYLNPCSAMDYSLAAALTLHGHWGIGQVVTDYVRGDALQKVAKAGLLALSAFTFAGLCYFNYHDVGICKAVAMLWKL
UniProt D0VWV4, sequence (whole entry, looked up): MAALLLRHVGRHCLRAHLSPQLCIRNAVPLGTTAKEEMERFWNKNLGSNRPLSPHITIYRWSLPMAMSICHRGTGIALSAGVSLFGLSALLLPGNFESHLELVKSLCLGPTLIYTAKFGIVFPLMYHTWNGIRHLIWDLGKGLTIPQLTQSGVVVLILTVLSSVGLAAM
UniProt P07026, sequence (whole entry, looked up): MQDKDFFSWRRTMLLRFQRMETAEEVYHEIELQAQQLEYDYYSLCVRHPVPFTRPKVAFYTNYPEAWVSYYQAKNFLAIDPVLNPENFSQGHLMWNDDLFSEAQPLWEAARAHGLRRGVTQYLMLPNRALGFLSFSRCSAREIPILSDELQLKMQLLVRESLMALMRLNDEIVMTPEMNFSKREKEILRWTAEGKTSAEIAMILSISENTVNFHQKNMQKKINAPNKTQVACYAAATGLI
UniProt P05771, sequence (whole entry, looked up): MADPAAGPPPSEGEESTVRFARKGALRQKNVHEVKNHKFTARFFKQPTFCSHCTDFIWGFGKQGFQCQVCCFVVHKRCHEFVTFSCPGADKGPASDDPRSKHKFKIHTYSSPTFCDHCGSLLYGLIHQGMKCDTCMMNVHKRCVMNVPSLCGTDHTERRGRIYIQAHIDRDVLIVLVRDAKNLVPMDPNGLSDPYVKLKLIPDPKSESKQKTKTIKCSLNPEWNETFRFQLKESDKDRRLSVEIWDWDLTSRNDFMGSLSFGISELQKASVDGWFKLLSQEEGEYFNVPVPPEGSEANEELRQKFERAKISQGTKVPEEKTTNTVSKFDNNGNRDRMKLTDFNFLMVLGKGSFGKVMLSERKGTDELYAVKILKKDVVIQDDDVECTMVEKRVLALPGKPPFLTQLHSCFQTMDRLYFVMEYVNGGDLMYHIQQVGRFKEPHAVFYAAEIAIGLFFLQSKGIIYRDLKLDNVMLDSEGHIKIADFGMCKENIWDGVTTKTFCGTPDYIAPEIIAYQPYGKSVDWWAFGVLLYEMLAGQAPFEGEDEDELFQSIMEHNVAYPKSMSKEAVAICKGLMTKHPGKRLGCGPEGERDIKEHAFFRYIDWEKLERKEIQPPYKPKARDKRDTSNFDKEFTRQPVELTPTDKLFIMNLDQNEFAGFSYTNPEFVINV
UniProt Q9Y2J8, sequence (whole entry, looked up): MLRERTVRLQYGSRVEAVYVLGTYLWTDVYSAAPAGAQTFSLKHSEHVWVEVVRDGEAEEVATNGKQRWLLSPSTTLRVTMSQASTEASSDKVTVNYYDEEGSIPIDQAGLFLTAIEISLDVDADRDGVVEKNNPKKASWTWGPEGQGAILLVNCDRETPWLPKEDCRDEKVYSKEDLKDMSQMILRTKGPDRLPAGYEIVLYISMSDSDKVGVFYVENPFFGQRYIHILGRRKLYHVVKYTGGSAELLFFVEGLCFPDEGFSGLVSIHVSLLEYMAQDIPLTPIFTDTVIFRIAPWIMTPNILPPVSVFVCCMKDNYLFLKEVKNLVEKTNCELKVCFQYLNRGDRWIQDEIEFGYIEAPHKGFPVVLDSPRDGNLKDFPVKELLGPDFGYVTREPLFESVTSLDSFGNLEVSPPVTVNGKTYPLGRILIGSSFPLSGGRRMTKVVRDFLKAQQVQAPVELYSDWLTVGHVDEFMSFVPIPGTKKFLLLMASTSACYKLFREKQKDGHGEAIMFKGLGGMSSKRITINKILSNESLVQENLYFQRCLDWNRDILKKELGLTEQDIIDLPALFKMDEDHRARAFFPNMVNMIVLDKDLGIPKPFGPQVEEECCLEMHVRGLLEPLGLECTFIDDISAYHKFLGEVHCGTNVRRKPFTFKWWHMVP
UniProt Q9Y2U5, sequence (whole entry, looked up): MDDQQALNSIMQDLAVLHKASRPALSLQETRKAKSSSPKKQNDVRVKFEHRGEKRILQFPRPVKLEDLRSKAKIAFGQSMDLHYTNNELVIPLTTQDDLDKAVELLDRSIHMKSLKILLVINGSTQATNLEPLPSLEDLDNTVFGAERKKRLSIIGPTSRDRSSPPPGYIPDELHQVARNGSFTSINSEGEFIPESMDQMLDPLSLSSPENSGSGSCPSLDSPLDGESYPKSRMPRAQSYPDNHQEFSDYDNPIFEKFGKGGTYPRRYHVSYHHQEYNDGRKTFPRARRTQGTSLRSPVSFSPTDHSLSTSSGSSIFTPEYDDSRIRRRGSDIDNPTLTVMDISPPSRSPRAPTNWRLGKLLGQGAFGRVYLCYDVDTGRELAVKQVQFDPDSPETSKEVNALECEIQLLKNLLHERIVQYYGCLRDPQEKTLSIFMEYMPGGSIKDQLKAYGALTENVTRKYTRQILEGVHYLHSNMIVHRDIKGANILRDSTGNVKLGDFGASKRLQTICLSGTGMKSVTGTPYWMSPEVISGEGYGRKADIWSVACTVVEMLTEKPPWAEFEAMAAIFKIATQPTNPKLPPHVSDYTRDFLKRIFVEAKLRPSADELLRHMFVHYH
UniProt P32238, sequence (whole entry, looked up): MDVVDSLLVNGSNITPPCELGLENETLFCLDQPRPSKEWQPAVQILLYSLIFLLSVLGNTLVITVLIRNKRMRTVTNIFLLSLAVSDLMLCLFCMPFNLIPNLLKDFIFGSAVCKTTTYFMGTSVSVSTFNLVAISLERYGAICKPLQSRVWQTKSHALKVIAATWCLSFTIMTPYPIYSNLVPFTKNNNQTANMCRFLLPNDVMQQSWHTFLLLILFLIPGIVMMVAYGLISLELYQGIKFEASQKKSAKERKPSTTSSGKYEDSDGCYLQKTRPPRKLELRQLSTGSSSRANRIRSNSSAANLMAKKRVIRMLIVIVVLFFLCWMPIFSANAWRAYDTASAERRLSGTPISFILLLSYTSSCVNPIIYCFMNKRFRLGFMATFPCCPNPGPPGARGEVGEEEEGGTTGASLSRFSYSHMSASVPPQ
UniProt P35372, sequence (whole entry, looked up): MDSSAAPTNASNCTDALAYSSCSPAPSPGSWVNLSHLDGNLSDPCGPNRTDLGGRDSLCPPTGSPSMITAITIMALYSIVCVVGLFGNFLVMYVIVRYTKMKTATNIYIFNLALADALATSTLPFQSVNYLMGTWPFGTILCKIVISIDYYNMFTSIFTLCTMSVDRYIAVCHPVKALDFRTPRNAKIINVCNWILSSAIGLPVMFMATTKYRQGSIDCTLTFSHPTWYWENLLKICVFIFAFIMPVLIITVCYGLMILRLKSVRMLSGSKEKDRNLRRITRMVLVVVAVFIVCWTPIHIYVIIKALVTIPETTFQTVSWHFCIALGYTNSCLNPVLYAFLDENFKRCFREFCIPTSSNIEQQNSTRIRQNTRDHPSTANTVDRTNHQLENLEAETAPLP
UniProt P00772, sequence (whole entry, looked up): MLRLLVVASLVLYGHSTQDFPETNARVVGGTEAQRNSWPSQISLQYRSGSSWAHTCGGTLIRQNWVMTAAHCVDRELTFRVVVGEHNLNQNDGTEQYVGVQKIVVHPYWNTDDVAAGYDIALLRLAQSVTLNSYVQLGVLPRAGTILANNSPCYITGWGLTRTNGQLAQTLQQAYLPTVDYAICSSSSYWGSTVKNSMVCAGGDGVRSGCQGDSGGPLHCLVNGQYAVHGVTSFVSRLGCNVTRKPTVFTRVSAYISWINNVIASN

Cc1cc(O)cc(C)c1C[C@H](N)C(=O)N[C@H](CCCNC(=N)N)C(=O)N[C@@H](Cc1ccccc1)C(=O)N[C@@H](CCCCN)C(=O)NCCCCCCCCCCCCNC(=O)[C@H](Cc1ccccc1)NC(=O)[C@H](CC1CCCCC1)NC[C@@H]1Cc2ccccc2CN1C(=O)[C@@H](N)Cc1ccc(O)cc1  selectivity ratio (Oprm1; binding; rat brain membranes; added: [3H]DAMGO; relative to: Ki mu over Ki delta): 2.49
CCCC[C@H]1CNCCN1C[C@@H]1CCCN1C[C@H](CC1CCCCC1)N1CCN(CCc2ccc(Cl)c(Cl)c2)[C@H](Cc2ccc(O)cc2)C1  remaining binding (Oprm1; radioligand binding; rat brain membranes; 500 nM, pH 7.5, 25 °C, added: 0.87 nM [3H]DAMGO): 96.6 ± 5.65%
CC(C)C[C@@H](N)C(=O)NCC(=O)N[C@H](C)C(=O)N[C@H](CO)C(=O)N[C@H](Cc1c[nH]c2ccccc12)C(=O)N[C@H](Cc1c[nH]cn1)C(=O)N[C@H](CCCNC(=N)N)C(=O)N1CCC[C@@H]1C(=O)N[C@H](CC(=O)O)C(=O)N[C@H](CCCCN)C(=O)N[C@H](CCCCN)C(=O)N[C@H](CCCNC(=N)N)C(=O)NCCCCCC(=O)N[C@@H](CCCCN)C(=O)N[C@@H](CCCNC(=N)N)C(=O)N[C@@H](CCCCN)C(=O)N[C@@H](CCC(N)=O)C(=O)N[C@@H](CCCNC(=N)N)C(=O)NCC(=O)N1CCC[C@H]1C(=O)NCC(=O)N[C@@H](CCCNC(=N)N)C(=O)N[C@@H](C)C(=O)N[C@@H](Cc1ccccc1)C(N)=O  cell migration (CXCR4 (Homo sapiens, UniProt P61073); chemotaxis, antagonist; SUP-T1; 10 µM, added: SDF-1alpha): inhibited
CC(C)[C@@H]1NC(=O)[C@H](CC(N)=O)NC(=O)CNC(=O)[C@H](CC(N)=O)NC(=O)[C@H](C)NC(=O)[C@H](CC(=O)O)NC(=O)[C@H]([C@@H](C)O)NC(=O)[C@H](CCC(=O)O)NC(=O)CNC(=O)[C@H]([C@@H](C)O)NC(=O)[C@H](CCC(=O)O)NC(=O)[C@H](CCC(=O)O)NC(=O)[C@H](CC(=O)O)NC1=O  fluorescence polarization (KEAP1; Keap1-Nrf2 binding, inhibitor, competitive FP; 25 µM, 30 min, added: Nrf2 peptide probe; lower = stronger inhibition): 0.0723 a.u. and 0.157 a.u.
Nc1ccc(/C=C/C(=O)N2CCc3c(oc4c(-c5ccc(F)cc5)cc(-c5ccc(C(=O)N6CCC(F)(F)CC6)cn5)cc34)C2)cn1  remaining binding (PDGFRA (Homo sapiens, UniProt P16234); binding, competition with immobilised ligand; 1 µM): 87%
CN(C)[C@H](CNC(=O)/C=C/c1cccc2ccccc12)Cc1ccc(O)cc1  Emax (Mu-type opioid receptor, with Gi1 (OPRM1, Homo sapiens, UniProt P35372); receptor activation, agonist): 72 ± 2%
CC(O)CN.O=C(O)C(Cl)Cl  herbicidal inhibition (Eclipta prostrata; 15 mg/mL, 21 days, post-emergence, greenhouse): 42%
CCOC(=O)[C@@H]1Cc2c(cc([N+](=O)[O-])cc2[N+](=O)[O-])[C@H](O)[C@]12C(=O)Nc1ccc(Br)cc12  remaining binding (MAP3K2 (Homo sapiens, UniProt Q9Y2U5); binding, competition with immobilised ligand; 0.1 µM): 25%
O=C1C=C(Br)/C(=C/Br)O1  antagonist activity (lasR; reporter gene, antagonist; Escherichia coli, JLD271 with LasR plasmid; concentration not given, added: OdDHL 2 nM): inactive
O=C(Nc1ccncc1)c1ccccc1OS(=O)(=O)F  remaining activity (Uncharacterized hydrolase SAUSA300_2518; enzyme activity, inhibitor, fluorogenic substrate; 0.5 µM): 69.8% and 71% and 73.3%
Cc1cc(C(=O)Nc2nc3cccc(C)c3n2[C@H]2CCCCN(C(=O)/C=C/CN(C)C)C2)ccn1  EC50 fold shift (Trypanosoma brucei; cell growth, Alamar Blue; 2T1 overexpressing Tb927.11.4470; relative to: parental 2T1): 1.04 fold and 0.7 fold
C#CCCCCOc1ccc2c(c1)CCCN2C(=O)CCl  reactivity ratio (NPC1 (Homo sapiens, UniProt O15118); mass spectrometry profiling; H460 cell lysate; 100 µM over 10 µM, UniProt O15118; relative to: high over low concentration): 1.4
O=C(CCCCCCCCCN=C=S)CC(=O)N[C@H]1CCOC1=O  agonist activity (lasR; reporter gene, agonist; Escherichia coli JLD271; 10 µM, pSC11 and pJN105L plasmids; relative to: OdDHL at same concentration): 92%
Cc1cc(Nc2nc(C[C@@]3(C(=O)O)CCN(Cc4cccc(Cl)c4F)[C@H](C)C3)cc(C)c2F)[nH]n1  activation (CCKAR (Homo sapiens, UniProt P32238); agonist; 10 µM): -0.11%
CCCCCCCCCC(=O)NC1CCCC1  agonist activity (lasR; reporter gene, agonist; Pseudomonas aeruginosa PAO-JP2; 100 µM, plasI-LVAgfp reporter; relative to: OdDHL at same concentration): 1%
O=C1NC2(CC2)COc2ncc(F)cc2[C@H]2COCCN2c2ccn3ncc1c3n2  organ-to-body weight ratio (Sprague-Dawley rat, female, uterus; oral, 5 mg/kg/day, 4 weeks, end of treatment): 0.134 ± 0.026%
COc1ccccc1-c1n[nH]c2nc(N[C@H]3CC[C@H](NS(=O)(=O)CC(C)C)CC3)ncc12  remaining binding (cdc2-related kinase 12 (Leishmania donovani, UniProt A0A3S7WQK2); kinobead competition pull-down; Leishmania donovani, cell extract; 0.0032 µM, unit not given; relative to: vehicle): 0.54
[CH3][Ti+2][O]C(=O)c1ccc([S][Au][PH](c2ccccc2)(c2ccccc2)c2ccccc2)cc1.c1cc[cH-]c1.c1cc[cH-]c1  remaining activity (Protein kinase C beta type, isoform beta-I (PRKCB, Homo sapiens, UniProt P05771); kinase activity; 1 µM, added: ATP 10 µM): 92.9% and 93.4%
CCCCCC(O)CC(=O)N[C@H]1CCOC1=O (stereo partly shown)  Emax (sdiA): 79.2%
CON(C(=O)c1cn(C)nc1C(F)F)C(C)Cc1c(Cl)cc(Cl)cc1Cl (stereo not shown)  reaction velocity (SDHD/SDHC/SDHB (Sus scrofa, UniProt A5GZW8+D0VWV4+Q007T0); enzyme activity, inhibitor, DCIP reduction; pig; 0.3 µM, added: DCIP 20 µM): 0.00443 µM/s and 0.00393 µM/s and 0.00394 µM/s
CS(C)(=O)=Nc1ccc(-c2ccc(-c3nc4cc(O[C@@H]5CO[C@H]6[C@@H]5OC[C@H]6O)[nH]c4cc3F)cc2)cc1  inhibition (NLK (Homo sapiens, UniProt Q9UBE8); enzyme activity, inhibitor; 10 µM): 14%
CC(C)[C@H]1NC(=O)C[C@H]2/C=C/CCSSC[C@@H](NC1=O)C(=O)N[C@H](Cc1cccc3ccccc13)C(=O)NCC(=O)O2  inhibition (NEK7 (Homo sapiens, UniProt Q8TDX7); enzyme activity, inhibitor; 10 µM): 0.256%
CN1CCCN(C(=O)c2ccc(S(=O)(=O)F)cc2)c2ccccc21  remaining activity (Uncharacterized hydrolase SAUSA300_2518; enzyme activity, inhibitor, fluorogenic substrate; 10 µM): 103% and 111%
Cc1ccc(NC(=O)CCc2cccc(NC3=CC(=O)N(C4CCC(=O)NC4=O)C3=O)c2)cc1Cl (stereo not shown)  log2 fold change (Cereblon/Ikaros (Homo sapiens, UniProt Q13422+Q96SW2); degrader, quantitative proteomics, refers to: protein abundance; human regulatory T cells; 1 µM, 4 h; relative to: DMSO): -1.49
O=C1NC(=O)c2c1c1cc(F)c[n+]3c1c1c2c2cc(O)ccc2[n]1[Ru-4]312([N]=C=S)[S+]3CC[S+]1CC[S+]2CC3 (stereo not shown)  remaining activity (FLT3 (Homo sapiens, UniProt P36888); enzyme activity; 100 nM, human enzyme, added: 10 µM ATP; relative to: untreated): 5%
O=C(Cc1ccc(Br)cc1)N[C@@H]1CCOC1=O  Emax (sdiA): 67.4%
CC(C)(C)C(=O)OCOP(=O)(OCOC(=O)C(C)(C)C)C1CCCN(O)C1=O (stereo not shown)  GI50 (NCI-H23): 564 nM
CN(C)[C@H]1C[C@@]23CC[C@@]4(O2)C(=CC[C@]2(C)[C@@H](c5ccc6ccncc6c5)CC[C@H]24)C=C3[C@@H](O)[C@@H]1O  inhibition (IRAK3 (Homo sapiens, UniProt Q9Y616); ATP probe labelling, inhibitor, KiNativ profiling; 0.1 µM): 5.8%
O=C(O)c1cccc(CP(=O)(O)O)n1  koff (blaNDM-1 (Klebsiella pneumoniae, UniProt C7C422); enzyme activity, inhibitor; added: nitrocefin): 0.0035 ± 0.000333 s⁻¹
OB(O)c1ccc(OCc2ccccc2)nc1F  selectivity ratio (CELA1 (Sus scrofa, UniProt P00772); pNA substrate hydrolysis; relative to: Ki protease over Ki AmpC): 1380
CCCC[C@H]1CNCCN1C[C@@H]1CCCN1C[C@@H](Cc1ccc2ccccc2c1)N1CCN(CCc2ccc(Cl)c(Cl)c2)[C@H]([C@@H](C)O)C1  remaining binding (Oprm1; radioligand binding; rat brain membranes; 500 nM, pH 7.5, 25 °C, added: 0.87 nM [3H]DAMGO): 104 ± 8.28%
CC(C)CC(O)(CC(C)C)c1cn(C(=O)N2CCCC2)nn1  activity ratio-of-ratios (Dipeptidyl peptidase 2 (Dpp7, Mus musculus, UniProt Q9ET22); probe labelling, inhibitor, refers to: Dpp7; mouse, brain; i.p., 0.8 mg/kg, 4 h, protein level; relative to: treated over vehicle mice, lower = stronger inhibition): 1.56
CCCCCCCCCCCCn1nnc(CC(=O)O)n1  agonist activity (lasR; reporter gene, agonist; Escherichia coli JLD271; 10 µM, pSC11 and pJN105L plasmids; relative to: OdDHL at same concentration): 1%
N[C@H](C(=O)N1CCCC1)C1CCN(c2nccc3c(-c4ncc(Cl)cc4Cl)cccc23)CC1  melting temperature (PADI2 (Homo sapiens, UniProt Q9Y2J8); thermal shift; 0.9507 µM): 64 °C and 63 °C
CN(C)CCCSC(=S)N1CCN(C(=O)/C=C/c2coc3ccccc3c2=O)CC1  MST response (Nucleoprotein (N, Tomato spotted wilt virus, UniProt P25999, R94A); binding, microscale thermophoresis; 0.0153 µM; dose series): 842 a.u.
CC(C)C[C@@H]1NC(=O)[C@H](C(C)C)NC(=O)[C@H](CCC(=O)O)NC(=O)CNC(=O)[C@H]([C@@H](C)O)NC(=O)[C@H](CCC(=O)O)NC(=O)[C@H](CCC(=O)O)NC(=O)[C@H](CC(=O)O)NC(=O)[C@H](C(C)C)NC(=O)[C@H]([C@@H](C)O)NC(=O)CNC(=O)[C@H](CC(=O)O)NC(=O)[C@@H]2CCCN2C1=O  fluorescence polarization (KEAP1; Keap1-Nrf2 binding, inhibitor, competitive FP; 0.0015 µM, 30 min, added: Nrf2 peptide probe; lower = stronger inhibition): 1.04 a.u. and 0.968 a.u.
Cc1ccc2oc(=O)cc(CN3CCCCC3)c2c1  agonist activity (ADRA1B (Homo sapiens, UniProt P35368); intracellular Ca2+ mobilization, agonist; COS-7; 500 µM; relative to: 3 µM ionomycin): 6.47 ± 1.56%

A few entries again:
CC(C)(C)C(=O)OCOP(=O)(OCOC(=O)C(C)(C)C)C1CCCN(O)C1=O (stereo not shown)  GI50 (NCI-H23): 564 nM
CCCCCC(O)CC(=O)N[C@H]1CCOC1=O (stereo partly shown)  Emax (sdiA): 79.2%
O=C(Nc1ccncc1)c1ccccc1OS(=O)(=O)F  remaining activity (Uncharacterized hydrolase SAUSA300_2518; enzyme activity, inhibitor, fluorogenic substrate; 0.5 µM): 69.8% and 71% and 73.3%
CS(C)(=O)=Nc1ccc(-c2ccc(-c3nc4cc(O[C@@H]5CO[C@H]6[C@@H]5OC[C@H]6O)[nH]c4cc3F)cc2)cc1  inhibition (NLK (Homo sapiens, UniProt Q9UBE8); enzyme activity, inhibitor; 10 µM): 14%
Cc1cc(O)cc(C)c1C[C@H](N)C(=O)N[C@H](CCCNC(=N)N)C(=O)N[C@@H](Cc1ccccc1)C(=O)N[C@@H](CCCCN)C(=O)NCCCCCCCCCCCCNC(=O)[C@H](Cc1ccccc1)NC(=O)[C@H](CC1CCCCC1)NC[C@@H]1Cc2ccccc2CN1C(=O)[C@@H](N)Cc1ccc(O)cc1  selectivity ratio (Oprm1; binding; rat brain membranes; added: [3H]DAMGO; relative to: Ki mu over Ki delta): 2.49
CC(C)C[C@@H]1NC(=O)[C@H](C(C)C)NC(=O)[C@H](CCC(=O)O)NC(=O)CNC(=O)[C@H]([C@@H](C)O)NC(=O)[C@H](CCC(=O)O)NC(=O)[C@H](CCC(=O)O)NC(=O)[C@H](CC(=O)O)NC(=O)[C@H](C(C)C)NC(=O)[C@H]([C@@H](C)O)NC(=O)CNC(=O)[C@H](CC(=O)O)NC(=O)[C@@H]2CCCN2C1=O  fluorescence polarization (KEAP1; Keap1-Nrf2 binding, inhibitor, competitive FP; 0.0015 µM, 30 min, added: Nrf2 peptide probe; lower = stronger inhibition): 1.04 a.u. and 0.968 a.u.
